Assay results gathered from unrelated publications.
Compare with care: the assays were run in different laboratories. Several values in a cell are separate wells, animals, samples, runs or records. ± marks the error that the study gave.
Spike glycoprotein: Spike glycoprotein (Severe acute respiratory syndrome coronavirus 2, UniProt P0DTC2)
rep main protease: Replicase polyprotein 1ab, main protease (rep, Severe acute respiratory syndrome coronavirus 2, UniProt P0DTD1)

Substance | tested on | test | system | setting | scale | quantity | result
Cn1cnc(Cn2c(=O)[nH]/c(=N\c3cc4cn(C)nc4cc3Cl)n(Cc3cc(F)c(F)cc3F)c2=O)n1 |  |  | human, all renal function groups | oral, 375 mg, decreased GFR TEAE, Mild severity |  | patients with adverse event | 0%
CC1(C)CC[C@]2(C(=O)O[C@@H]3O[C@H](CO)[C@@H](O)[C@H](O)[C@H]3O)CC[C@]3(C)C(=CC[C@@H]4[C@@]5(C)CC[C@H](O[C@@H]6O[C@H](C(=O)O)[C@@H](O)[C@H](O)[C@H]6O)C(C)(C)[C@@H]5CC[C@]43C)[C@@H]2C1 | Spike glycoprotein | binding, BLI |  |  |  | koff | 0.359 s⁻¹
voxilaprevir | rep main protease | enzyme activity, Gaussia luciferase reporter | SARS-CoV-2 | 20 µM |  | inhibition | -0.391%
C[C@H](NC(=O)c1[nH]nc2nc[nH]c(=O)c12)[C@@H]1CCN(C(=O)c2cc(-c3ccccc3)ccn2)C1 | rep main protease | enzyme activity, inhibitor |  | 5 µM, mean of runs |  | inhibition | 17%
Cc1nc(N)cc(OC2CCN(C(=O)c3ccc(S(=O)(=O)F)cc3)CC2)n1 | cya (Bacillus anthracis, UniProt P40136) |  |  |  |  | kinact | 0.00187 s⁻¹
CC(C)C[C@H](CC(=O)NO)C(=O)N[C@@H](Cc1ccc2ccccc2c1)C(=O)N[C@@H](C)C(=O)NCCN | rep main protease | viral replication, mKate2 reporter | SARS-CoV-2 | 20 µM |  | inhibition | -0.935%
O=C(NC[C@H](NC(=O)c1cn[nH]c1-c1ccccn1)c1ccc2ccccc2c1)c1cn[nH]c1 | rep main protease | enzyme activity |  | 5 µM, mean of runs |  | inhibition | 10.9%
C[C@@H]1O[C@@H](Oc2c(-c3cc(O)c(O)c(O)c3)oc3cc(O)cc(O)c3c2=O)[C@H](O)[C@H](O)[C@H]1O | Spike glycoprotein | binding, biolayer interferometry |  |  |  | koff | 0.00482 s⁻¹
Cc1cncc(CC(=O)N2CCC[C@@H]([C@@H]3CCN(C(=O)c4cnn5cccnc45)C3)C2)c1 | rep main protease | enzyme activity, inhibitor |  | 5 µM, mean of runs |  | inhibition | 10.2%
CC[C@H](C)[C@H](NC(=O)[C@H](CC(C)C)NC(=O)[C@H](Cc1c[nH]c2ccccc12)NC(=O)[C@H](CCC(N)=O)NC(=O)[C@@H](NC(=O)[C@H](Cc1ccccc1)NC(=O)[C@H](C)NC(=O)[C@H](CCCCNC(=O)COCCOCCNC(=O)COCCOCCNC(=O)CC[C@H](NC(=O)CCCCCCCCCCCCCCCCCCC(=O)O)C(=O)O)NC(=O)[C@H](CCC(N)=O)NC(=O)[C@H](C)NC(=O)[C@@H](NC(=O)[C@H](CCCCN)NC(=O)[C@H](CC(=O)O)NC(=O)[C@H](CC(C)C)NC(=O)C(C)(C)NC(=O)[C@@H](NC(=O)[C@H](CO)NC(=O)[C@H](Cc1ccc(O)cc1)NC(=O)[C@H](CC(=O)O)NC(=O)[C@H](CO)NC(=O)[C@@H](NC(=O)[C@H](Cc1ccccc1)NC(=O)[C@@H](NC(=O)CNC(=O)[C@H](CCC(=O)O)NC(=O)C(C)(C)NC(=O)[C@@H](N)Cc1ccc(O)cc1)[C@@H](C)O)[C@@H](C)O)[C@@H](C)CC)[C@@H](C)CC)C(C)C)C(=O)N[C@@H](C)C(=O)NCC(=O)NCC(=O)N1CCC[C@H]1C(=O)N[C@@H](CO)C(=O)N[C@@H](CO)C(=O)NCC(=O)N[C@@H](C)C(=O)N1CCC[C@H]1C(=O)N1CCC[C@H]1C(=O)N1CCC[C@H]1C(=O)N[C@@H](CO)C(N)=O |  | item: treatment-emergent feeling hot | healthy subjects | 1.5 mg, multiple ascending dose |  | subjects with adverse event | 0%
O=C(O)c1cc(NCc2cc(O)ccc2O)ccc1O | rep main protease | reporter gene (Gaussia luciferase), inhibitor |  | 20 µM |  | inhibition | 2.08%
CCc1c(C(=O)C(N)=O)c2c(OCC(=O)O)cccc2n1Cc1ccccc1 | Daboia russelii venom phospholipase A2 | enzyme activity, inhibitor | PB population | 0.1 µM, with: NOB substrate | baseline: venom alone | remaining activity | 95% and 90% and 96%
CO[C@H]1/C=C/O[C@@]2(C)Oc3c(C)c(O)c4c(O)c(c(/C=N/N5CCN(C)CC5)c(O)c4c3C2=O)NC(=O)/C(C)=C\C=C\[C@H](C)[C@H](O)[C@@H](C)[C@@H](O)[C@@H](C)[C@H](OC(C)=O)[C@@H]1C | Spike glycoprotein | binding, BLI |  |  |  | koff | 0.411 s⁻¹
Nc1ncnc2c([C@@H]3N[C@H](CO)[C@@H](O)[C@H]3O)c[nH]c12 | Marburg virus | viral replication | HeLa, Angola | 50 µM |  | inhibition | 95.3%
CC[C@H](C)[C@H](NC(=O)[C@@H]1CCCN1C(=O)[C@H](C)NC(=O)[C@@H]1CSSC[C@@H]2NC(=O)[C@H](CC(=O)O)NC(=O)[C@H](CCCNC(=N)N)NC(=O)[C@H](CCC(=O)O)NC(=O)[C@H](CCCNC(=N)N)NC(=O)CNC(=O)[C@H](CC(=O)O)NC(=O)[C@@H]3CSSC[C@H](NC(=O)[C@H](CCC(=O)O)NC(=O)[C@H](CC(C)C)NC(=O)CNC(=O)[C@H](C)NC(=O)[C@H](CSSC[C@H](NC(=O)[C@H](Cc4ccccc4)NC(=O)[C@@H](N)CO)C(=O)N[C@@H](CC(C)C)C(=O)N[C@@H](C(C)C)C(=O)N[C@@H](CCCCN)C(=O)N[C@@H](Cc4c[nH]c5ccccc45)C(=O)N[C@@H](CCCCN)C(=O)N[C@@H](CCC(N)=O)C(=O)N3)NC2=O)C(=O)N[C@@H](Cc2c[nH]c3ccccc23)C(=O)N[C@@H](CCCCN)C(=O)N[C@@H](CCCNC(=N)N)C(=O)N[C@@H](CO)C(=O)N[C@@H](CCCNC(=N)N)C(=O)N[C@@H](CC(N)=O)C(=O)N[C@@H](CCCCN)C(=O)N[C@@H](CO)C(=O)N[C@@H](CO)C(=O)N[C@@H](C(C)C)C(=O)N1)C(=O)N[C@H](C(=O)O)[C@@H](C)O | ASIC1 (Homo sapiens, UniProt P78348) | outside-out patch clamp | HEK-293T ASIC1a knockout | 100 nM, wild type | baseline: before toxin | deactivation fold change | 0.91 ± 0.27 fold
Cc1ccncc1C(=O)N[C@@H](CNC(=O)C1=NOCC1)c1ccc2ccccc2c1 | rep main protease | enzyme activity, inhibitor |  | 5 µM, mean of runs |  | inhibition | 11.9%
CC1(C)CC[C@@]2(CO)C(=C3C=C[C@@H]4[C@@]5(C)CC[C@H](O)[C@@](C)(CO)[C@@H]5CC[C@@]4(C)[C@]3(C)C[C@@H]2O)C1 | rep main protease | reporter gene (mKate2), inhibitor |  | 20 µM |  | inhibition | 0.0675%

For quick reference, copied from above:
Substance | tested on | test | system | setting | scale | quantity | result
C[C@H](NC(=O)c1[nH]nc2nc[nH]c(=O)c12)[C@@H]1CCN(C(=O)c2cc(-c3ccccc3)ccn2)C1 | rep main protease | enzyme activity, inhibitor |  | 5 µM, mean of runs |  | inhibition | 17%
O=C(O)c1cc(NCc2cc(O)ccc2O)ccc1O | rep main protease | reporter gene (Gaussia luciferase), inhibitor |  | 20 µM |  | inhibition | 2.08%
